Assay results gathered from unrelated publications.
Lines come from different studies, so protocols differ. Numbers after ± are the reported error.

SMILES	system	setting	endpoint	value
CN(C)CCCNC(=O)/C(=C/CCCCC(=O)NO)COc1cccc2ccccc12	human patients	intravenous, 187.5 mg/m2, day 1, single dose, mean	terminal volume of distribution	67.3 L
C[C@@]1(c2cc(NC(=O)c3ccc(C#N)cn3)ccc2F)C=CSC(N)=N1	healthy young male human, plasma	oral, 1 mg, single dose	terminal half-life	9 h
Cc1cc(-c2nccc3c2ccn3CC(=O)Nc2ccc(-c3cnccn3)cn2)ccn1	human, plasma	oral, 20 mg single dose, geometric mean	terminal half-life	10.8 h
CN1C(=O)[C@@H](NC(=O)c2nnc(Cc3ccccc3)[nH]2)COc2cccnc21	healthy human, fasted, plasma	oral, 30 mg single dose, geometric mean	terminal half-life	5.67 h
Cc1cc(-c2nnc(N)nc2-c2ccc(F)cc2)cc(Cl)n1	human patients, plasma	oral, 100 mg nanosuspension, single dose, arithmetic mean	terminal half-life	9.8 h
COc1nnc2ccc(N3CCC(c4ccc(OCCN5CCN(C)C(=O)[C@H]5C)cc4)CC3)nn12	human, plasma	oral, 40 mg once daily, single dose, monotherapy	terminal half-life	1.9 h
Cl.[2H]C([2H])([2H])CC(=O)c1cnc(NC(=O)C2CC2)cc1Nc1cccc(-c2ncn(C([2H])([2H])[2H])n2)c1OC	human, non-fasted	oral, 30 mg twice daily, day 14, multiple dose, tablet, geometric mean	terminal elimination rate constant	2.53e-05 s⁻¹
CN(CC#N)C(=O)C[C@H](Nc1nc2ccccc2[nH]1)c1cccc(C(F)(F)F)c1	human	intravenous infusion, 1 mg/kg, 5 mg/mL formulation	terminal half-life	4.11 ± 0.37 h
